Measured values collected from several papers.
Numbered parts are unrelated; each lists some results of a single study. Positions count from the first letter of the parent shown.

Sample 1
Target: CCNB1, cyclin fold, Cln2 fusion (human)
Technique: yeast growth competition, sequencing
Medium: yeast
Setting: strong parent motif
Relative to: not given
Reading: higher = stronger binding
Starting sequence: viral docking peptide; KGVKRKLFAEDSS; partner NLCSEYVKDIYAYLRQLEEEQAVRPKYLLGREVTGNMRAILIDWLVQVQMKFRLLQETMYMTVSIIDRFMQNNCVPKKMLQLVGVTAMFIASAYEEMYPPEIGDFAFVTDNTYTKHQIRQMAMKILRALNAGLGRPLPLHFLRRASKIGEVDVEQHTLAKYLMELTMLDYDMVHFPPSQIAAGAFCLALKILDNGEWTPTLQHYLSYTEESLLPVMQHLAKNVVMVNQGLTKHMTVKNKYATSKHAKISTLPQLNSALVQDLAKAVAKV
| Variant | normalised enrichment score |
| --- | --- |
| KGLKRKLFAEDSS [V3L] | 0.73 |
| KGVKRKRFAEDSS [L7R] | 0.951 |
| KGVKRKLFAEVSS [D11V] | 1.22 |
| KGVKRKLFAMDSS [E10M] | 0.467 |
| KGVKRKLFEEDSS [A9E] | 3.02 |
| KGVKRKLFAEDTS [S12T] | 2.69 |
| KGVKRKLRAEDSS [F8R] | 0.378 |
| KGVKRKMFAEDSS [L7M] | 0.493 |

Sample 2
Target: UBE2A UBC core domain (UniProt P49459)
Sequence of UniProt P49459 (whole entry, looked up): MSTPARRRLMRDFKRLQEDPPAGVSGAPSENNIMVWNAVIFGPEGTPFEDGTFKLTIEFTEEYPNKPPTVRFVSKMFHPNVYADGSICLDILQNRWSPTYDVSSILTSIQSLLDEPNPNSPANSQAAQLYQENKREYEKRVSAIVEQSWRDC
Technique: yeast two-hybrid
Medium: yeast
Setting: mostly zero background
Relative to: not given
Reading: higher = stronger interaction
B1: RNF133 RING domain (UniProt Q8WVZ7); chain DEEINPNGDSCVICFERYKPNDIVRILTCKHFFHKNCIDPWILPHGTCPICKCDILKVLGIQ
B2: SH3RF1 RING domain (UniProt Q7Z6J0); chain DESALLDLLECPVCLERLDASAKVLPCQHTFCKRCLLGIVGSRNELRCPECRTLVGSGVEEL
B3: MDM4 RING domain (UniProt O15151); chain MEDCQNLLKPCSLCEKRPRDGNIIHGRTGHLVTCFHCARRLKKAGASCPICKKEIQLVIKVF
B4: TRIM62 RING domain (UniProt Q9BVG3); chain MACSLKDELLCSICLSIYQDPVSLGCEHYFCRRCITEHWVRQEAQGARDCPECRRTFAEPALAP
B5: UBOX5 RING domain (UniProt O94941); chain EQPGSILGPECASCKRVFSPYFKKEPVYQLPCGHLLCRPCLGEKQRSLPMTCTACQRPVASQDVLR
| Sequence | lacZ reporter activity |
| --- | --- |
| B1 (RNF133 RING domain) | 9610 |
| KETIKKTTKPCPRCHVPVEKNGGCMHMKCPQPQCRLEWCWNCGCEWNRVCMG (PRKN RING domain (UniProt O60260)) | 0 |
| AMYLQENGIDCPKCKFSYALARGGCMHFHCTQCRHQFCSGCYNAFYAKNKC (RNF31 RING domain (UniProt Q96EP0)) | 0 |
| B2 (SH3RF1 RING domain) | 0 |
| FDGDVDPDLKCALCHKVLEDPLTTPCGHVFCAGCVLPWVVQEGSCPARCRGRLSAKELN (PDZRN3 RING domain (UniProt Q9UPQ7)) | 0 |
| B3 (MDM4 RING domain) | 0 |
| B4 (TRIM62 RING domain) | 0 |
| B5 (UBOX5 RING domain) | 0 |

Sample 3
Target: HLA class I histocompatibility antigen, A alpha chain, allele A*80:01 (Homo sapiens, UniProt P04439)
Read-out: peptide-MHC binding
Form: peptide
Concentration: concentration not given
| Sequence | binding |
| --- | --- |
| RAMDVYCHR | inactive |
| SLFGAAVSL | inactive |
| DLAQDPMLI | inactive |
| TEWPQLKVA | inactive |
| FTGWRDPGL | inactive |
| KTVCVQATK | inactive |
| AKIALAVYK | inactive |
| PHAATIRVL | inactive |

Mixed results
| Structure (SMILES) | cell line | concentration | time | measurement | value |
| --- | --- | --- | --- | --- | --- |
| C=C1C[C@@H]2[C@H](CC[C@]3(C)C(=O)CC[C@@H]23)[C@@]2(C)C=CC(=O)C=C12 | HaCaT | 100 µM | 36 h | viability | 20.2% |

A few entries again (sample 3):
| Sequence | binding |
| --- | --- |
| SLFGAAVSL | inactive |
| DLAQDPMLI | inactive |
| TEWPQLKVA | inactive |
| FTGWRDPGL | inactive |
